# Measured values gathered from unrelated publications.
# Compare with care: the assays were run in different laboratories. Values joined by “and” are separate records of one study, mostly repeats; a detail may differ. ± marks the error that the study gave.
# Chain of UniProt P42336 (whole entry, looked up): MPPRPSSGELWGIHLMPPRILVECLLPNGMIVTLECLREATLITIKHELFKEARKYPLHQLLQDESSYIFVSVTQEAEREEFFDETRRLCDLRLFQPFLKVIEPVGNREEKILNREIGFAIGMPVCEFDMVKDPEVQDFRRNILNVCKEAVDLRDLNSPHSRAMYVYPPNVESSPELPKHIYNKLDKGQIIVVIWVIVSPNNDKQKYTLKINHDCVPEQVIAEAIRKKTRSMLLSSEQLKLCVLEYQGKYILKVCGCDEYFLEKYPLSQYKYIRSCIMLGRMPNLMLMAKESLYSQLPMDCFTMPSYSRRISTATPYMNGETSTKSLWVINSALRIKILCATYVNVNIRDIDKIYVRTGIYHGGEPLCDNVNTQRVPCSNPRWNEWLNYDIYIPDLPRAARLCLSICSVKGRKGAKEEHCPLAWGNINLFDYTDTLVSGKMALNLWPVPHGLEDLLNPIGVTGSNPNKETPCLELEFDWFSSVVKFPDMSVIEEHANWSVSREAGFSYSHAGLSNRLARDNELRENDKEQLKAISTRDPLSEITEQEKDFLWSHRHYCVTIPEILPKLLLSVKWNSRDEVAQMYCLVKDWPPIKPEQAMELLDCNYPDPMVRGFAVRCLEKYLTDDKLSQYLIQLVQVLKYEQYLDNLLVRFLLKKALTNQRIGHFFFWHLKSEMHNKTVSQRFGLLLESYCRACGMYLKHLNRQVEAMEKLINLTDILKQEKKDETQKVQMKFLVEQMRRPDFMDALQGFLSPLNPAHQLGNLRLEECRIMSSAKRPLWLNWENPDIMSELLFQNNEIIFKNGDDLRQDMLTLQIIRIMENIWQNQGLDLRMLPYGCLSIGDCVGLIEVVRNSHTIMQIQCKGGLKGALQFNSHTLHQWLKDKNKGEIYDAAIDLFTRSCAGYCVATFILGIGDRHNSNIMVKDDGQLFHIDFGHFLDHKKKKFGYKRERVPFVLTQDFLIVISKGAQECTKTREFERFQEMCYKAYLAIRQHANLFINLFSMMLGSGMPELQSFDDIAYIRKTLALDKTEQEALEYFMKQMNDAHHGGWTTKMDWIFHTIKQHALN
Structure (SMILES),tested on,test,system,conditions,scale,measurement,value
CC(C)(C)C(=O)OCOP(=O)(OCOC(=O)C(C)(C)C)C1CCCN(O)C1=O (stereo not shown),MDA-MB-468,,,,,TGI,5.48 µM
NC1CCN(C(=O)Oc2ccc(C3CCCC4(C3)OOC3(O4)C4CC5CC(C4)CC3C5)cc2)CC1 (racemic),,,"male mouse, plasma","intravenous, 10 mg/kg",,half-life,3.42 h
Cc1nc2cccc(OCC(C)(C)C(=O)NC(C)C)c2c(N)c1C(=O)[O-].[Na+],Salmonella typhimurium,Ames preincubation,TA98,"0.80 mg/plate, with: with rat liver S9",,revertant colonies,40 ± 3 colonies/plate
CC(C)[C@H](NC(=O)[C@@H](NC(=O)[C@H](CCCNC(=N)N)NC(=O)[C@H](CCCNC(=N)N)NC(=O)[C@H](CCCNC(=N)N)NC(=O)[C@H](CCC(N)=O)NC(=O)[C@H](CCCNC(=N)N)NC(=O)[C@H](CCCNC(=N)N)NC(=O)[C@H](CCCCN)NC(=O)[C@H](CCCCN)NC(=O)[C@H](CCCNC(=N)N)NC(=O)CN)[C@@H](C)O)C(=O)N[C@H](C(=O)N[C@@H](CO)C(=O)N1CCC[C@H]1C(=O)O)[C@@H](C)O,,,"ICR mouse, male, left kidney","intranasal, 10 mg/kg daily, 4 weeks",,kidney weight,0.292 ± 0.016 g
CC[C@H](C)[C@H](NC(=O)[C@H](CCCCN)NC(=O)CNC(=O)[C@H](CC(C)C)NC(=O)[C@H](Cc1ccccc1)NC(=O)[C@H](CCCCN)NC(=O)[C@H](CO)NC(=O)[C@H](Cc1ccccc1)NC(=O)[C@H](Cc1c[nH]c2ccccc12)NC(=O)[C@H](CCC(N)=O)NC(=O)[C@@H](NC(=O)[C@H](Cc1ccccc1)NC(=O)CCCCCNC(=O)CN1CCN(CC(=O)O)CCN(CC(=O)O)CCN(CC(=O)O)CC1)C(C)C)C(=O)N[C@@H](CCC(=O)O)C(=O)N1CCC[C@H]1C(=O)N[C@@H](CC(=O)O)C(=O)N[C@H](C(=O)N[C@@H](CO)C(=O)N[C@@H](CCC(N)=O)C(=O)N[C@H](C(=O)N[C@@H](CCC(N)=O)C(=O)N[C@@H](CC(=O)O)C(=O)N1CCC[C@H]1C(=O)N[C@@H](CC(N)=O)C(=O)N[C@@H](CC(=O)O)C(=O)N[C@@H](CCC(N)=O)C(=O)N[C@@H](Cc1ccc(O)cc1)C(=O)N[C@@H](CCC(=O)O)C(=O)N1CCC[C@H]1C(=O)N[C@@H](Cc1ccccc1)C(=O)O)C(C)C)C(C)C [copper-64 labelled],,,"C57BL/6 mice, male, tumour-free, blood",1 h,,tissue uptake,3.07 ± 1.3 %ID/g
O=C(N[C@H](Cc1ccc(-c2ccccc2)cc1)C(=O)NCCNc1ccc([N+](=O)[O-])c2nonc12)c1ccc(-c2ccc(OP(=O)(O)O)cc2)cc1,,,PBS,"pH 7.4, before phosphatase treatment",,critical micelle concentration,58.8 µM
Cc1ccc(OCCN(C)C)cc1C(=O)N[C@H](C)c1cc(-c2cccs2)nc2ccccc12,Vero E6,,,3.906 µM,,viability,95.4% and 93.5%
CC[C@H](C)[C@H](NC(=O)[C@@H](NC(=O)c1cccc(Cl)c1Cl)C(C)(C)C)C(=O)N[C@H](C(=O)N[C@H](C(=O)N[C@H](C(=O)N[C@@H](CCC(N)=O)C(=O)N[C@@H](Cc1c[nH]cn1)C(=O)N[C@H](CC(C)C)C(=O)N[C@@H](CO)C(=O)NCCC(=O)N[C@@H](CCCCNC(=O)CC[C@@H]1NC(=O)[C@@H](CCCNC(=N)N)NC(=O)[C@H](CCCNC(=N)N)NC(=O)[C@@H](CCCNC(=N)N)NC(=O)[C@H](CCCNC(=N)N)NC(=O)[C@H](Cc2ccc3ccccc3c2)NC(=O)[C@@H](Cc2ccccc2)NC1=O)C(N)=O)[C@@H](C)O)[C@@H](C)CC)C(C)(C)C,,,human serum 25%,"5 µM, 24 h, 37 °C",,degradation,< 10%
CC(C)C[C@H](NC(=O)[C@H](Cc1ccc(O)cc1)NC(=O)[C@H](C)NC(=O)[C@H](CC(N)=O)NC(=O)[C@H](CC(C)C)NC(=O)[C@H](C)NC(=O)[C@@H](NC(=O)[C@H](CCCCN)NC(=O)CNC(=O)[C@@H](NC(=O)[C@H](CC(N)=O)NC(=O)[C@H](CCCCN)NC(=O)CNC(=O)[C@@H](NC(=O)[C@H](Cc1c[nH]cn1)NC(=O)[C@H](C)NC(=O)[C@H](C)NC(=O)[C@H](CCCCN)NC(=O)[C@H](CCCCN)NC(=O)[C@H](Cc1ccccc1)NC(=O)[C@H](Cc1c[nH]c2ccccc12)NC(=O)[C@H](CCCCN)NC(=O)[C@H](CCCCN)NC(=O)[C@H](CS)NC(=O)CN)C(C)C)C(C)C)C(C)C)C(N)=O,,,"zebrafish embryos 28 hpf, E3 medium",1 h,,acute toxic concentration,5 µM
CCn1ccc(-c2cc([C@@H](C)NC(=O)c3cc(OC[C@@H]4CCN4C)ccc3C)c3ccccc3n2)n1,Vero E6,,,250 µM,,viability,0.299% and 0.597%
O=C1NC2(CC2)COc2ncc(F)cc2[C@H]2COCCN2c2ccn3ncc1c3n2,,,"Sprague-Dawley rat, male, blood","oral, 2.5 mg/kg/day, 4 weeks, end of treatment, subacute toxicity",,lymphocyte percentage,77 ± 6.7%
CC[C@H](C)[C@@H]1NC(=O)[C@H](Cc2ccc(O)cc2)NC(=O)CCCSC[C@@H](C(=O)N(CC(=O)N[C@@H](CC(C)C)C(=O)NCC(N)=O)Cc2ccc(F)cc2)NC(=O)[C@H](CC(N)=O)NC(=O)[C@H](CCC(N)=O)NC1=O,,,human,"intranasal, 50 µg single dose",,deaths,0%
CC1(C)C(=O)N(c2ccc(C#N)c(C(F)(F)F)c2)C(=S)N1c1ccc(C(N)=O)c(F)c1,,,"male human, plasma","oral, 40 mg, single dose, fasted",,MRT,401 h
COc1cc2ncnc(Oc3ccc(Nc4nccc5[nH]cc(-c6ccc(F)cc6)c(=O)c45)cc3F)c2cc1OC,,general toxicity,Sprague-Dawley rat,"oral, multiple doses, once daily",,NOAEL,10 mg/kg/day
COc1ccccc1-c1n[nH]c2nc(NC3CCN(C(=O)Cc4ccc(F)cc4F)CC3)ncc12,,"bead binding, competition bead pull-down, refers to: LINJ.23.0220",Leishmania donovani axenic amastigote extract,10 µM,baseline: vehicle,relative abundance,0.94
C=Cc1c(C)c2cc3nc(c(CC(=O)O)c4[nH]c(cc5nc(cc1[nH]2)C(C)=C5CC)c(C)c4C(=O)O)[C@@H](CCC(=O)NCCCC[C@H](NC(C)=O)C(=O)N[C@@H](Cc1ccccc1)C(=O)N[C@@H](Cc1ccccc1)C(=O)N[C@H](C(=O)N[C@@H](CC(C)C)C(=O)N[C@@H](CCCCN)C(=O)N[C@@H](CO)C(=O)NCC(=O)N[C@@H](CCC(N)=O)C(=O)NCC(=O)N[C@@H](Cc1ccc(O)cc1)C(=O)N[C@@H](CCCNC(=N)N)C(=O)N[C@@H](Cc1c[nH]c2ccccc12)C(=O)N[C@@H](CC(=O)O)C(=O)N[C@@H](CO)C(=O)N[C@@H](Cc1ccc(O)cc1)C(=O)N[C@@H](CCCNC(=N)N)C(=O)N[C@@H](Cc1c[nH]c2ccccc12)C(=O)N[C@@H](Cc1c[nH]cn1)C(=O)N1CCC[C@H]1C(=O)N[C@@H](CO)C(=O)N[C@@H](CS)C(=O)N[C@@H](C)C(=O)N[C@@H](CS)C(=O)NCC(=O)NCC(=O)N[C@@H](CO)C(=O)N[C@@H](CCCCN)C(N)=O)C(C)C)[C@@H]3C,,,"mouse, 4T1 breast tumour, serum","concentration not given, 21 days after single dose",,TNF level,43.1 pg/mL and 42.2 pg/mL
CS(C)(=O)=Nc1ccc(-c2ccc(-c3nc4cc(O[C@@H]5CO[C@H]6[C@@H]5OC[C@H]6O)[nH]c4cc3F)cc2)cc1,"Phosphatidylinositol 4,5-bisphosphate 3-kinase catalytic subunit alpha isoform, with p65 alpha (PIK3CA, Homo sapiens, UniProt P42336)",kinase activity,,10 µM,,inhibition,-1%
CCN(CCCCOc1ccc(CCC(=O)N2CCC(Cc3ccccc3)CC2)cc1OC)Cc1ccccc1,,,"Sprague-Dawley rats, both sexes, urine","oral gavage, 25 mg/kg, 0 to 48 h",,excreted amount,3590 ± 601 ng
CC(C)[C@@H]1NC(=O)CNC(=O)[C@H](CC(N)=O)NC(=O)[C@H](CCCNC(=N)N)NC(=O)[C@H](Cc2ccc(O)cc2)NC(=O)[C@H](C(C)C)NC(=O)[C@@H](NC(=O)[C@@H](NC(=O)[C@H](CC(N)=O)NC(=O)[C@H](Cc2c[nH]c3ccccc23)NC(=O)[C@H](C)NC(=O)[C@H](Cc2ccccc2)NC(=O)CNC(=O)[C@H](CCCCN)NC(=O)[C@H](Cc2ccccc2)NC(=O)[C@H](Cc2ccccc2)NC(=O)[C@H](CCCCN)NC(=O)OCC2c3ccccc3-c3ccccc32)C(C)C)CSSC[C@@H](C(=O)N[C@@H](Cc2c[nH]cn2)C(=O)N[C@@H](CCCNC(=N)N)C(=O)N[C@@H](CCCNC(=N)N)C(=O)N[C@@H](C)C(=O)N[C@@H](CC(N)=O)C(N)=O)NC(=O)[C@H](C(C)C)NC(=O)[C@H](CCCNC(=N)N)NC1=O,,,"ICR mice, blood","intraperitoneal, 10 mg/kg, day 5",,mean platelet volume,6.83 ± 0.19 fL
